Results collected from several papers.
Lines come from different studies, so protocols differ. ± gives the spread as reported.
2,3-bisphosphoglycerate-independent phosphoglycerate mutase: 2,3-bisphosphoglycerate-independent phosphoglycerate mutase (Helicobacter pylori, UniProt B5Z7X6)
NPY2R: Neuropeptide Y receptor type 2 (NPY2R, Homo sapiens, UniProt P49146)
Sequence of UniProt P49146 (whole entry, looked up): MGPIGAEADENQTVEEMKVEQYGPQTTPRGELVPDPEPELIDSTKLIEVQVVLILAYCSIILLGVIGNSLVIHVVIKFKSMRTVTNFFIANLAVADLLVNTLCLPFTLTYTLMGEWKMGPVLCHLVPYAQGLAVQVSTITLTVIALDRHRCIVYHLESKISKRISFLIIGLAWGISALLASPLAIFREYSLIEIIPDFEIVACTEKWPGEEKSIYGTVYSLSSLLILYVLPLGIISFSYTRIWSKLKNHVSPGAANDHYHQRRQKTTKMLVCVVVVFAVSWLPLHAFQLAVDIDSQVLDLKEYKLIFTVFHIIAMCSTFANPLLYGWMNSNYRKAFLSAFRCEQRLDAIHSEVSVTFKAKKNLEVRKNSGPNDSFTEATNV
INPP5D: Phosphatidylinositol 3,4,5-trisphosphate 5-phosphatase 1 (INPP5D, Homo sapiens, UniProt Q92835)
Sequence of UniProt Q92835 (whole entry, looked up): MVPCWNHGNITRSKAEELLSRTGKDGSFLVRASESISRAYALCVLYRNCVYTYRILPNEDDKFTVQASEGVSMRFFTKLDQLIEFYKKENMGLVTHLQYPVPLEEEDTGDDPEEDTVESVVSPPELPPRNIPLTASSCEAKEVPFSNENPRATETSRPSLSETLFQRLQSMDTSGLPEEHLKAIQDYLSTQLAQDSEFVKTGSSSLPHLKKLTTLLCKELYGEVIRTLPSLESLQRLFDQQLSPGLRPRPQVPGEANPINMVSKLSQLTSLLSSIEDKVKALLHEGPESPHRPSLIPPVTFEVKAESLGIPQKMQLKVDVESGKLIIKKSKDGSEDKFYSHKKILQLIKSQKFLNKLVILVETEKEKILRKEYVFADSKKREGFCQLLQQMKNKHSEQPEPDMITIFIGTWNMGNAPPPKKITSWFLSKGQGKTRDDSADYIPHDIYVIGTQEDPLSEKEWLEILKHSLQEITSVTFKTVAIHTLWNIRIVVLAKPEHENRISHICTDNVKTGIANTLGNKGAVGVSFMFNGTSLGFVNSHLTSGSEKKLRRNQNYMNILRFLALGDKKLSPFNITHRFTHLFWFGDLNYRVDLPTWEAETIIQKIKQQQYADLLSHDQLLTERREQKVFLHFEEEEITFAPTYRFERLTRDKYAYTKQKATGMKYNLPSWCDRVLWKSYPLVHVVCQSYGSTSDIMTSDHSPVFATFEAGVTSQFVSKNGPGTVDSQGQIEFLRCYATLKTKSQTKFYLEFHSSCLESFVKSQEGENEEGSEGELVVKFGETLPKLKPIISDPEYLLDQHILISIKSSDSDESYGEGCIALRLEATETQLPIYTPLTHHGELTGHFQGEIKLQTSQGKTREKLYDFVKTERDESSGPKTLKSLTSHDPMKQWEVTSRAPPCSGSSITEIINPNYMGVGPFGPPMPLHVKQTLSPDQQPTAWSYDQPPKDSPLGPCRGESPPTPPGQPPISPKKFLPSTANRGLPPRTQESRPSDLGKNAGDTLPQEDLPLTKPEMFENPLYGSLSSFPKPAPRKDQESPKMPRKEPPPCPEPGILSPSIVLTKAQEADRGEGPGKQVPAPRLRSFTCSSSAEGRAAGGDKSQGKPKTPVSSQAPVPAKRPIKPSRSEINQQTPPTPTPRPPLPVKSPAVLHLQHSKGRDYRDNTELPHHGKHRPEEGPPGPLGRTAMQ
Sequence of UniProt Q04609 (whole entry, looked up): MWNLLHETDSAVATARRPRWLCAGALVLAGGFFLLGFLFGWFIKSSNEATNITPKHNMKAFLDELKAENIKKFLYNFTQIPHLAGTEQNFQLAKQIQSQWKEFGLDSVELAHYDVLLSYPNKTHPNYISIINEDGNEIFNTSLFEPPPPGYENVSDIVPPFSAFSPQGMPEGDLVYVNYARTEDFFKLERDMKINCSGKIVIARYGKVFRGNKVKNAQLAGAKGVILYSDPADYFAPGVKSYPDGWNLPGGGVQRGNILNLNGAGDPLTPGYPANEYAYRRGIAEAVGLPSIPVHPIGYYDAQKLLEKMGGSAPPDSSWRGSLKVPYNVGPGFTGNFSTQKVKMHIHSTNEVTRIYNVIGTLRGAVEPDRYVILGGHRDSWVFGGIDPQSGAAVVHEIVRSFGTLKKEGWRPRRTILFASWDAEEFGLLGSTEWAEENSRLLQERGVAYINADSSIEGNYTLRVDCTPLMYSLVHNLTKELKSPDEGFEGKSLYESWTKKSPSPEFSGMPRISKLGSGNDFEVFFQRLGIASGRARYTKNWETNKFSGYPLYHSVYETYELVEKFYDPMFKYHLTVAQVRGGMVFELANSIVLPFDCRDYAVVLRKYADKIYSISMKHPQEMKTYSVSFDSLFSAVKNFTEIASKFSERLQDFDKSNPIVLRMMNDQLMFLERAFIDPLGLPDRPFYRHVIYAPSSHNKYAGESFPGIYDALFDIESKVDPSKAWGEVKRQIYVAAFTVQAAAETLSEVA
Sequence of UniProt P09958 (whole entry, looked up): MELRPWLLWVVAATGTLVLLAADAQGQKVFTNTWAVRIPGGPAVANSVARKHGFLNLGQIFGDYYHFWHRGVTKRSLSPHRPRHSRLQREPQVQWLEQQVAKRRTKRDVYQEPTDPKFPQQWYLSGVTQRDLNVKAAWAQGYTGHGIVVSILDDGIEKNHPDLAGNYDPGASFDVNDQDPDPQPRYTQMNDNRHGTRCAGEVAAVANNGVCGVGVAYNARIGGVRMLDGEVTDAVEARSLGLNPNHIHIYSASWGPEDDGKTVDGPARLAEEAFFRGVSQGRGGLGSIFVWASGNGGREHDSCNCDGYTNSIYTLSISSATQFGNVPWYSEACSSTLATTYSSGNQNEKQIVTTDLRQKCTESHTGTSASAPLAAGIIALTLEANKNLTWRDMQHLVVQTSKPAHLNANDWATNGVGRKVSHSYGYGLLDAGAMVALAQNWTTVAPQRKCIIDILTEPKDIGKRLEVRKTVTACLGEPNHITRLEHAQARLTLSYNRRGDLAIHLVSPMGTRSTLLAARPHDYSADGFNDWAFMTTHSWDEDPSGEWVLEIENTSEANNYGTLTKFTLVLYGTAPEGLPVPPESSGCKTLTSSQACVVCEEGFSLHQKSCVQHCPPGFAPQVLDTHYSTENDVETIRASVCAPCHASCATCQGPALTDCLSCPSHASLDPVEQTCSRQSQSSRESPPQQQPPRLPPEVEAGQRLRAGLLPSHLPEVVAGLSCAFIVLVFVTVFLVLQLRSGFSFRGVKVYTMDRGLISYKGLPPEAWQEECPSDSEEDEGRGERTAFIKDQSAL
Sequence of UniProt P02769 (whole entry, looked up): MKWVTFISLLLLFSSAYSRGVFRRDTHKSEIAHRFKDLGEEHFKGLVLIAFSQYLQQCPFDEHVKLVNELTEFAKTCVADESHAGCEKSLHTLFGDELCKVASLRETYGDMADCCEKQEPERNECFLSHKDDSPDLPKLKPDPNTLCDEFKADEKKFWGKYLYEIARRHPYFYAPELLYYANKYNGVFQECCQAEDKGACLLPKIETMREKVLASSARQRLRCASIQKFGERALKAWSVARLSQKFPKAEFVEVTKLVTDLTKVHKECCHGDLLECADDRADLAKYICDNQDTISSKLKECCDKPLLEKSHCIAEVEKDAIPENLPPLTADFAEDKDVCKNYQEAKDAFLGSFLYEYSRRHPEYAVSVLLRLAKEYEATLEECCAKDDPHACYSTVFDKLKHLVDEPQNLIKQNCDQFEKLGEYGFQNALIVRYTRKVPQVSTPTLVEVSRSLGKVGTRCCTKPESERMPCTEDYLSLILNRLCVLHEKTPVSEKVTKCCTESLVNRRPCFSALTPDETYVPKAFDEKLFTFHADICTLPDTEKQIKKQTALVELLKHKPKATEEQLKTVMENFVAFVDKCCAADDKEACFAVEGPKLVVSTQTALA
Sequence of UniProt P25103 (whole entry, looked up): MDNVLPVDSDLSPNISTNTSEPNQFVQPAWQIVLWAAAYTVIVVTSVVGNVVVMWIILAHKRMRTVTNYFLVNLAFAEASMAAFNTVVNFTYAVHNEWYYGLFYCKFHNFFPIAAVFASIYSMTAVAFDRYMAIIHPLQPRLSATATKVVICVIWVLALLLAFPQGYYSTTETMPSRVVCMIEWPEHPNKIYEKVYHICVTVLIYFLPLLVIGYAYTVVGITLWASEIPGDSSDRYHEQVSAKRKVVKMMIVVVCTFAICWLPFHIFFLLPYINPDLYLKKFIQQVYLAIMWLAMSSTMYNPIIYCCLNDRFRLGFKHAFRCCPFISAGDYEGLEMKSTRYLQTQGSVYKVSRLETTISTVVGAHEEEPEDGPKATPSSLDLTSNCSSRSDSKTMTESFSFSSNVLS
Sequence of UniProt P20813 (whole entry, looked up): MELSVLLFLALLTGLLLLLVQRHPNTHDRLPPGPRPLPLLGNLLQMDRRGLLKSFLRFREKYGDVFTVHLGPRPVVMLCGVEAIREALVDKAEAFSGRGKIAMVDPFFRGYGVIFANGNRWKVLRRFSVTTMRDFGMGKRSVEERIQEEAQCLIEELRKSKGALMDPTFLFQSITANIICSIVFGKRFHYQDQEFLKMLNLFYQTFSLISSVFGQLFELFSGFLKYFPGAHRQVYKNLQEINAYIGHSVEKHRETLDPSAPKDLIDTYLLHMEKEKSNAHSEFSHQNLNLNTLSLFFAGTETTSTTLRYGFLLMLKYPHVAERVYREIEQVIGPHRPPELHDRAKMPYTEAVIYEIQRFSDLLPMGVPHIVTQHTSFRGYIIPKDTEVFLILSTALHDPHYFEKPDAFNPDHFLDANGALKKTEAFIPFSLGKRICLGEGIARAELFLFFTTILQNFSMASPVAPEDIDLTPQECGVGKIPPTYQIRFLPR
Sequence of UniProt P07711 (whole entry, looked up): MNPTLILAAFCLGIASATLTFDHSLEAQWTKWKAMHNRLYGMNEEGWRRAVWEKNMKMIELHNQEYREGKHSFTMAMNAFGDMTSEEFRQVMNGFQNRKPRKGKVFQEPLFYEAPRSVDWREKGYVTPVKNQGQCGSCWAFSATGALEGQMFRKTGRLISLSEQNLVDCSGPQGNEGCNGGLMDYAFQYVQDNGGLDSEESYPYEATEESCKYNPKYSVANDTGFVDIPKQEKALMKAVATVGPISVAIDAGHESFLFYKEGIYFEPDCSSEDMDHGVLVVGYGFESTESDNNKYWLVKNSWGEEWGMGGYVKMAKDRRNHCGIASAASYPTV

| Compound | target | test | test system | conditions | quantity | result |
| --- | --- | --- | --- | --- | --- | --- |
| CCCCCc1cc(O)c2c(c1)OC(C)(C)C1CCC(C(=O)OC3OC(C(=O)O)C(O)C(O)C3O)=CC21 (stereo not shown) | Cytochrome P450 2B6 (CYP2B6, Homo sapiens, UniProt P20813) | inhibitor | human, pooled liver microsomes | pH 7.4, added: bupropion 12.5 to 100 µM | Ki | 1.1 ± 0.47 µM |
| CC(C)[C@@H]1NC(=O)[C@H](CCCNC(=N)N)NC(=O)[C@H](Cc2ccc(O)cc2)NC(=O)[C@H](CO)NC(=O)[C@H](Cc2ccc(O)cc2)N(C)C(=O)[C@H](CC(N)=O)NC(=O)CNC(=O)[C@H](Cc2ccc(O)cc2)N(C)C(=O)[C@H](Cc2ccccc2)N(C)C(=O)[C@H](CC(=O)O)NC(=O)[C@H](Cc2ccc(O)cc2)NC(=O)[C@H](Cc2ccccc2)N(C)C(=O)[C@H](Cc2ccc(O)cc2)N(C)C(=O)[C@H](Cc2ccc(O)cc2)NC(=O)CSC[C@@H](C(N)=O)NC(=O)[C@@H]2CCCN2C1=O | 2,3-bisphosphoglycerate-independent phosphoglycerate mutase | biochemical |  |  | AC50 | 5.89 µM |
| CC(=O)N[C@@H](CCCNC(=N)N)C(=O)N[C@@H](Cc1ccc(O)cc1)C(=O)N[C@@H](CCCNC(=N)NC(=O)NCCCCN)C(=O)N[C@H](CC(C)C)C(=O)N[C@@H](CCCNC(=N)N)C(=O)N[C@@H](Cc1ccc(O)cc1)C(N)=O | NPY2R | ligand displacement, radioligand |  |  | Ki | > 5 µM |
| CSc1ccc2c(c1)c(CCN)c(C)n2Cc1ccc(Cl)cc1 | INPP5D | target engagement | HMC3 expressing HiBiT-INPP5D | 60 min, 37 °C | AC50 | 46 µM |
| CN1C(=O)[C@H](CCC(=O)O)NC(=O)[C@H](Cc2ccc(O)cc2)NC(=O)[C@H](CCCNC(=N)N)NC(=O)[C@@H](Cc2ccc(O)cc2)NC(=O)CSC[C@@H](C(N)=O)NC(=O)[C@H](CCCCN)NC(=O)[C@@H]2CCCN2C(=O)[C@H](CS)NC(=O)[C@H](CCC(=O)O)NC(=O)[C@H](Cc2ccc(O)cc2)N(C)C(=O)[C@H](CCCCN)NC(=O)[C@H](Cc2ccc(O)cc2)NC(=O)[C@@H]1Cc1ccc(O)cc1 | 2,3-bisphosphoglycerate-independent phosphoglycerate mutase | biochemical |  |  | AC50 | 33.1 µM |
| CSc1ccc2c(c1)c(CCN)c(C)n2Cc1ccccc1Cl | INPP5D | target engagement | HMC3 expressing HiBiT-INPP5D | 60 min, 37 °C | AC50 | 89 ± 11 µM |
| CC(=O)N[C@@H](CCCNC(=N)N)C(=O)N[C@@H](Cc1ccc(O)cc1)C(=O)N[C@@H](CCCNC(=N)NC(=O)NCCCCN)C(=O)N[C@@H](CC(C)C)C(=O)N[C@@H](CCCNC(=N)N)C(=O)N[C@@H](Cc1ccc(O)cc1)C(=O)O | NPY2R | ligand displacement, radioligand |  |  | Ki | > 5 µM |
| CC(=O)NCCCC[C@H](NC(=O)[C@@H](NC(=O)[C@H](C)NC(=O)[C@H](CC(C)C)NC(=O)[C@H](CCC(N)=O)NC(=O)[C@H](CCCCN)NC(=O)[C@H](CCCNC(=N)N)NC(=O)[C@@H]1CCCN1C(=O)[C@H](C)NC(=O)[C@@H](N)CCCCN)[C@@H](C)O)C(=O)N[C@@H](C)C(=O)N[C@@H](C)C(=O)N[C@@H](CCCNC(=N)N)C(=O)N[C@@H](CCCCN)C(=O)N[C@@H](CO)C(=O)N[C@@H](C)C(=O)N1CCC[C@H]1C(=O)N[C@@H](C)C(=O)O | Procathepsin L (CTSL, Homo sapiens, UniProt P07711) | enzyme activity, inhibitor, fluorescence |  | pH 6 | Ki | 5.02 µM |
| CC(=O)N[C@@H](Cc1c[nH]cn1)C(=O)N[C@@H](CCCNC(=N)N)C(=O)N[C@@H](CCCNC(=N)N)C(=O)N[C@@H](CCCNC(=N)N)C(=O)N[C@@H](CCCNC(=N)N)C(=O)N[C@@H](CCCNC(=N)N)C(=O)N[C@@H](CCCNC(=N)N)C(=O)N[C@@H](CCCNC(=N)N)C(=O)N[C@@H](CCCNC(=N)N)C(=O)N[C@@H](Cc1c[nH]cn1)C(N)=O | Albumin (ALB, Bos taurus, UniProt P02769) | fluorescence quenching |  | added: site competitor phenylbutazone | Kb | 680000 M⁻¹ |
| CC(C)C[C@H](NC(=O)[C@H](CO)NC(=O)CNC(=O)[C@H](N)CO)C(=O)N[C@@H](CO)C(=O)N[C@H](C(=O)N[C@@H](Cc1ccccc1)C(=O)N[C@@H](Cc1ccccc1)C(=O)N[C@@H](CCCNC(=N)N)C(=O)N[C@@H](CC(C)C)C(=O)N[C@@H](Cc1ccccc1)C(=O)N[C@@H](CC(N)=O)C(=O)N[C@@H](CCCNC(=N)N)C(=O)N[C@@H](CO)C(=O)N[C@@H](Cc1ccccc1)C(=O)N[C@H](C(=O)N[C@@H](CCC(N)=O)C(=O)N[C@@H](C)C(=O)O)[C@@H](C)O)[C@@H](C)O | uncharacterized protein (Streptococcus mutans serotype c, UniProt Q8DS94) |  | Streptococcus mutans |  | EC50 | 0.0064 µM |
| C[C@@H](O)[C@H](NC(=O)[C@H](CCCNC(=N)N)NC(=O)[C@H](CCCCN)NC(=O)[C@H](CCCCN)NC(=O)[C@@H](N)CCCNC(=N)N)C(N)=O | Furin (FURIN, Homo sapiens, UniProt P09958) | enzyme activity, inhibitor |  |  | Ki | 0.75 µM |
| C[N+](C)(CCn1cc(C[C@@H](NC(=O)c2cc(I)cc(I)c2I)C(=O)NCC2CCC(C(=O)N[C@H](Cc3ccc4ccccc4c3)C(=O)NCCCC[C@H](NC(=O)N[C@@H](CCC(=O)O)C(=O)O)C(=O)O)CC2)nn1)C[B-](F)(F)F (stereo partly shown) | FOLH1 (Homo sapiens, UniProt Q04609) | binding, radioligand competition | LNCaP | added: 18F-labelled compound | Ki | 0.00049 µM |
| Cc1cc(O)cc(C)c1C[C@H](N)C(=O)N[C@H](C)C(=O)NCC(=O)N[C@@H](Cc1ccc(F)cc1)C(=O)N1CCC[C@H]1C(=O)N[C@@H](CC(C)C)C(=O)N[C@@H](Cc1c[nH]c2ccccc12)C(=O)NCc1cc(C(F)(F)F)cc(C(F)(F)F)c1 | TACR1 (Homo sapiens, UniProt P25103) | cAMP, antagonist |  |  | Kb | 0.125 µM |

Excerpt of the above:
| Compound | target | test | test system | conditions | quantity | result |
| --- | --- | --- | --- | --- | --- | --- |
| CCCCCc1cc(O)c2c(c1)OC(C)(C)C1CCC(C(=O)OC3OC(C(=O)O)C(O)C(O)C3O)=CC21 (stereo not shown) | Cytochrome P450 2B6 (CYP2B6, Homo sapiens, UniProt P20813) | inhibitor | human, pooled liver microsomes | pH 7.4, added: bupropion 12.5 to 100 µM | Ki | 1.1 ± 0.47 µM |
